{"data": "Experimental data collected from several papers", "note": "Every numbered part comes from another study and shows a few of its results, in no order. Positions count from the first letter of the parent shown."}
{"data": "Block 1", "target": "OGT, full length, His-tagged (human)", "technique": "phage display, sequencing", "medium": "in vitro", "concentration": "1 µg OGT", "setting": "single substitutions, 15-mer displayed peptide, unchanged parent 16.7", "baseline": "input library", "reading": "higher = stronger binding", "parent": "peptide; NSEYMPQYQIIFAHQ"}
{"Substitution": "Q7G", "fold enrichment": "4.24 fold"}
{"Substitution": "N1V", "fold enrichment": "14.5 fold"}
{"Substitution": "Y4R", "fold enrichment": "0.771 fold"}
{"Substitution": "N1M", "fold enrichment": "12.1 fold"}
{"Substitution": "P6M", "fold enrichment": "3 fold"}
{"Substitution": "I11P", "fold enrichment": "2.31 fold"}
{"Substitution": "S2T", "fold enrichment": "16.7 fold"}
{"Substitution": "F12E", "fold enrichment": "0.71 fold"}
{"Substitution": "E3H", "fold enrichment": "9.31 fold"}
{"Substitution": "I11V", "fold enrichment": "7.56 fold"}
{"Substitution": "F12V", "fold enrichment": "6.47 fold"}
{"Substitution": "H14M", "fold enrichment": "8.55 fold"}
{"Substitution": "P6K", "fold enrichment": "0.0111 fold"}
{"data": "Block 2", "target": "Sal-like protein 4, full length isoform B (SALL4, Homo sapiens, UniProt Q9UJQ4-2, residues 1-616)", "technique": "universal PBM", "molecule type": "double-stranded DNA, one strand shown", "medium": "in vitro", "concentration": "not given", "setting": "8-mer, flanks averaged, mean of replicates", "reading": "higher = stronger binding"}
{"Oligonucleotide": "AGGGTCAT", "E-score": 0.0171}
{"Oligonucleotide": "GCTTAGAA", "E-score": -0.0592}
{"Oligonucleotide": "CCCCACGG", "E-score": -0.312}
{"Oligonucleotide": "GCTTCCCA", "E-score": -0.0847}
{"Oligonucleotide": "ACTGTGCG", "E-score": -0.176}
{"Oligonucleotide": "GTGTCTCA", "E-score": -0.0198}
{"Oligonucleotide": "AAAGGGGC", "E-score": -0.0782}
{"Oligonucleotide": "AGATCAAA", "E-score": 0.0119}
{"Oligonucleotide": "GCCAGTCC", "E-score": -0.307}
{"Oligonucleotide": "ACCCCTGA", "E-score": -0.109}
{"Oligonucleotide": "GACCAGTC", "E-score": -0.21}
{"Oligonucleotide": "GCCGGCCA", "E-score": -0.251}
{"Oligonucleotide": "GTAACAAC", "E-score": 0.0965}
{"Oligonucleotide": "GAAAACTC", "E-score": -0.0696}
{"Oligonucleotide": "GAAAGAGC", "E-score": -0.115}
{"Oligonucleotide": "AATTTGCC", "E-score": 0.122}
{"data": "Block 3", "target": "CCNE1, cyclin fold, Cln2 fusion (human)", "technique": "yeast growth competition, sequencing", "medium": "yeast", "setting": "weak parent motif", "baseline": "not given", "reading": "higher = stronger binding", "parent": "CDC6 docking peptide (human); TLKGRRLVFDNQL"}
{"Substitution": "N11D", "normalised enrichment score": 0.932}
{"Substitution": "R5Q", "normalised enrichment score": -0.119}
{"Substitution": "K3P", "normalised enrichment score": 0.00266}
{"Substitution": "G4P", "normalised enrichment score": 1.84}
{"Substitution": "D10S", "normalised enrichment score": 0.842}
{"Substitution": "T1V", "normalised enrichment score": 1.07}
{"Substitution": "L13W", "normalised enrichment score": 0.781}
{"Substitution": "R5K F9L", "normalised enrichment score": 0.627}
{"Substitution": "N11F", "normalised enrichment score": 1.03}
{"Substitution": "L13I", "normalised enrichment score": 0.288}
{"Substitution": "L7G", "normalised enrichment score": -0.126}
{"Substitution": "N11Q", "normalised enrichment score": -0.146}
{"Substitution": "K3V", "normalised enrichment score": 1.73}
{"Substitution": "L13N", "normalised enrichment score": 0.548}
{"Substitution": "R5M", "normalised enrichment score": 0.274}
{"Substitution": "R5G", "normalised enrichment score": 0.394}
{"Substitution": "K3S", "normalised enrichment score": 0.529}
{"Substitution": "L13Q", "normalised enrichment score": 0.787}
{"Substitution": "R6G", "normalised enrichment score": 0.115}
{"Substitution": "T1C", "normalised enrichment score": 0.279}
{"Substitution": "R6E", "normalised enrichment score": -1.07}
{"Substitution": "F9Y", "normalised enrichment score": 0.0734}
{"Substitution": "L2T", "normalised enrichment score": -0.119}
{"Substitution": "K3M", "normalised enrichment score": 0.239}
{"Substitution": "R5Y", "normalised enrichment score": 0.0505}
{"data": "Further values, each from its own experiment"}
{"Substance": "PhoQ, residues 284 288 289 292 302 303 TLSLKA", "target": "PhoP, residues 12 14 15 18 19 NHFIF (Escherichia coli, UniProt P23836)", "assay": "Sort-seq, item: YFP reporter", "system": "E. coli", "conditions": "PhoQ-PhoP variant library, with: 10 µM Mg2+", "how to read": "baseline: high Mg2+ state, higher = stronger signaling", "measurement": "fold induction", "value": 1.09}
{"note": "Some of these lines once more (block 2):"}
{"Oligonucleotide": "GCCAGTCC", "E-score": -0.307}
{"Oligonucleotide": "ACCCCTGA", "E-score": -0.109}
{"Oligonucleotide": "GACCAGTC", "E-score": -0.21}
{"Oligonucleotide": "GCCGGCCA", "E-score": -0.251}
{"Oligonucleotide": "GTAACAAC", "E-score": 0.0965}
{"Oligonucleotide": "GAAAACTC", "E-score": -0.0696}
{"Oligonucleotide": "GAAAGAGC", "E-score": -0.115}
{"Oligonucleotide": "AATTTGCC", "E-score": 0.122}
